Assay results pooled from the literature.
Protocols differ between the studies behind these lines. ± gives the spread as reported. In brackets after ≈: the same amount, converted by molar mass.
UCHL1: Ubiquitin carboxyl-terminal hydrolase isozyme L1 (UCHL1, Homo sapiens, UniProt P09936)
Sequence of UniProt P09936 (whole entry, looked up): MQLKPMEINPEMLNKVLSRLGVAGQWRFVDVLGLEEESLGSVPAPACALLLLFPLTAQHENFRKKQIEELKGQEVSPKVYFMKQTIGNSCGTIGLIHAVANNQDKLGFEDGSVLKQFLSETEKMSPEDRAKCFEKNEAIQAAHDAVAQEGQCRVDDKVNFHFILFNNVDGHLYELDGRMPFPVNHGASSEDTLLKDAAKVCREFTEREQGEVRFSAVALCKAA
Sequence of UniProt Q07794 (whole entry, looked up): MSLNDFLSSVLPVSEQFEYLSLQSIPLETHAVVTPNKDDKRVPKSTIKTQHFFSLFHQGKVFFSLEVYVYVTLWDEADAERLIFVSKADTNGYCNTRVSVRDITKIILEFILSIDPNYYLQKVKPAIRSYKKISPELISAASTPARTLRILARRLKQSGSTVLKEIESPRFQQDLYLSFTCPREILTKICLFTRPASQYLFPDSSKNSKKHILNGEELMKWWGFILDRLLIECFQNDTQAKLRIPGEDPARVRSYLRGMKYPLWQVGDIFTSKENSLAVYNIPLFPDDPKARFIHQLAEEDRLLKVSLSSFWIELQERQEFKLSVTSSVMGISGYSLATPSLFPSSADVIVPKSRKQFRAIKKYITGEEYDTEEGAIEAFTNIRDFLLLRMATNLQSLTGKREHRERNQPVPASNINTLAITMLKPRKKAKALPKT

Structure (SMILES)	tested on	assay	system	setting	how to read	measurement	result
COc1cccc(C(=O)C#Cc2ccc(F)c(F)c2)c1	Pseudomonas aeruginosa	RT-qPCR, refers to: rhlA	biofilm cells	10 µM, 24 h	reference: untreated	mRNA level	18%
CC[C@H]1CN2CCc3cc(OC)c(OC)cc3[C@@H]2C[C@@H]1C[C@H]1NCCc2cc(OC)c(OC)cc21	Toxoplasma gondii	parasite growth, luciferase reporter	HFF, tachyzoite	72 h	–	EC90	0.172 µM
O=C(/C=C/C=C/C=C/C1CCCCC1)NC1=C[C@@](O)(/C=C/C=C/C=C/C(=O)NC2=C(O)CCC2=O)[C@@H]2O[C@@H]2C1=O	hcc1833	cell growth, inhibitor, CellTiter-Glo luminescence	–	78 h	reference: day 0 cell count	GI50	19.6 µM
N#Cc1ccc2c(-c3ccncc3)c(-c3ccc(F)cc3)nn2c1	–	kinase binding, competitor, MIB/MS competition, refers to: YAK1	Candida albicans cell lysate	10 µM	reference: DMSO	log2 fold change	-0.0986
C[C@H]1C[C@H]2CSC(N)=N[C@@]2(c2nc(NC(=O)c3ccc(OC(F)F)cn3)cs2)CO1	–	refers to: Aβx-40	healthy adults, plasma	275 mg once daily, day 14	reference: placebo	percent change from baseline	-71.8%
C[C@H](Oc1ccc(Br)cc1-c1ccon1)C(=O)O	–	first response peak	human, tibialis anterior muscle	50 mg, 15 Hz, single ascending dose	–	difference from placebo	5.9%
N#CC(=Cc1cc(F)ccc1F)C(=O)NC1CCCC1	UCHL1	covalent, intact protein LC-MS	–	12.5 µM	–	labelling	15.7%
CCn1cc(-c2cc(Cn3ccnc3)cc3c2CCN([C@H](c2cc(OC)ccn2)C2CC2)C3=O)c(C(F)(F)F)n1	SK-LU-1	cell growth, inhibitor	–	120 h	–	EC50	> 30 µM
Cn1cc(-c2ccc(-c3cncc(Cl)c3N3CCC4(CCNC4=O)CC3)cc2)cn1	COLO 205	gene expression, microarray, refers to: NAIP mRNA	–	concentration not given, 2 h	reference: untreated cells	log2 fold change	2.6
COc1cc(C#CC(=O)C(C)C)ccc1O	Pseudomonas aeruginosa	static biofilm	PA14	10 µM, 24 h	reference: DMSO	biofilm formation	76%
Fc1ccc(Nc2nc(-c3ccccc3F)no2)cc1	Histone acetyltransferase RTT109, with Vps75 (Saccharomyces cerevisiae, UniProt Q07794)	enzyme activity, inhibitor, HTS, CPM-based, dose response	–	–	–	IC50	> 125 µM
COc1cccc(C(=O)C#Cc2ccc(O)c(OC)c2)c1	Pseudomonas aeruginosa	RT-qPCR, refers to: phzC1	biofilm cells	10 µM, 24 h	reference: untreated	mRNA level	60%
COc1cnc2cccc(N3CCc4c(cc(Cn5ccnc5C)cc4-c4cn(C)nc4C(F)(F)F)C3=O)c2c1	SK-HEP1	cell growth, inhibitor	–	120 h	–	EC50	> 30 µM
O=c1[nH]cc(F)c(=O)[nH]1	Toxoplasma gondii	parasite growth, luciferase reporter	HFF, tachyzoite	72 h	–	EC90	1.18 µM
COc1cc(-c2[nH]nnc2C(=O)c2ccccc2)ccc1O	Pseudomonas aeruginosa	static biofilm	PA14	10 µM, 24 h	reference: DMSO	biofilm formation	70%
OC(Cn1cncn1)(Cn1cncn1)c1ccc(F)cc1F	Nakaseomyces glabratus	–	CG12, azole-susceptible, RPMI 1640	24 h, 35 °C	–	MIC	3.12 µM (≈ 0.957 µg/mL)
O=C(Nc1ccncc1)c1cc([N+](=O)[O-])ccc1Cl	Toxoplasma gondii	bradyzoite growth	–	glutamine-induced bradyzoites, glucose-free medium	–	EC50	0.6 µM
CCC(C)C(=O)C#Cc1ccc(O)c(OC)c1 (stereo not shown)	Pseudomonas aeruginosa	static biofilm	PA14	10 µM, 24 h	reference: DMSO	biofilm formation	80%
CCn1cc(-c2cc(Cn3ccoc3=N)cc3c2CCN([C@@H](C)c2cc(OC)ccn2)C3=O)c(C(F)(F)F)n1	SNU761	cell growth	–	120 h	–	EC50	> 30 µM
CSc1ccc(CN2CCCC(CNC(=O)c3ccc(F)cc3)C2)cc1 (stereo not shown)	Trypanosoma cruzi	reporter translation, Renilla luciferase mRNA translation	cell-free extract	40 µM	reference: DMSO	inhibition	-6.5%

Structure (SMILES)	tested on	assay	system	setting	how to read	measurement	result
OC[C@H]1O[C@@H]2O[C@H]3[C@H](O)[C@@H](O)[C@@H](O[C@H]4[C@H](O)[C@@H](O)[C@@H](O[C@H]5[C@H](O)[C@@H](O)[C@@H](O[C@H]6[C@H](O)[C@@H](O)[C@@H](O[C@H]7[C@H](O)[C@@H](O)[C@@H](O[C@H]8[C@H](O)[C@@H](O)[C@@H](O[C@H]1[C@H](O)[C@H]2O)O[C@@H]8CO)O[C@@H]7CO)O[C@@H]6CO)O[C@@H]5CO)O[C@@H]4CO)O[C@@H]3CO	LuxR	Escherichia coli sensor	–	200 µM	higher = stronger induction	bioluminescence induction	885 ± 26 RLU
O=C(O)CNC(=O)Cc1ccccc1	–	–	ventricular cardiomyocytes, C57BL/6 mouse	dose not given, 0.64 s	–	sarcomere length	1.71 µm
O=C1c2ccccc2C(=O)c2c(NCCc3ccc(O)cc3)ccc(NCCc3ccc(O)cc3)c21	Toxoplasma gondii	parasite growth	HFF, bradyzoite, glutamine-induced	–	–	EC90	11.9 µM
COc1ccccc1C(=O)C#Cc1ccc(F)c(F)c1	Pseudomonas aeruginosa	static biofilm	PA14	10 µM, 24 h, static	reference: DMSO	biofilm formation	78%
NC(=O)c1cnc2[nH]ccc2c1N[C@@H]1[C@@H]2CC3C[C@H]1C[C@@](O)(C3)C2	–	CD4+ central memory T cells, flow cytometry	Caucasian humans, peripheral blood	60 mg single dose	reference: baseline	percent change	-0.52%
Cc1ccc(S(=O)(=O)/C=C/C#N)cc1	Toxoplasma gondii	parasite growth	HFF, bradyzoite, glutamine-induced	–	–	EC90	6.71 µM
c1coc(-c2n[nH]cc2-c2ccnc3ccccc23)c1	RCK2 (Candida albicans)	kinase binding, MIB/MS competition	Candida albicans lysate	1 µM	reference: DMSO	log2 fold change	-0.25
COc1cc(C#CC(=O)CC(C)C)ccc1O	Pseudomonas aeruginosa	static biofilm	PA14	10 µM, 24 h	reference: DMSO	biofilm formation	68%
CC(C)(C)c1cc(/C=C(\C#N)C(N)=S)cc(C(C)(C)C)c1O	Toxoplasma gondii	parasite growth	HFF, bradyzoite, alkaline-induced	–	–	EC90	182 µM
Oc1ccccc1-c1n[nH]cc1-c1ccnc2ccccc12	BUB1 (Candida albicans)	kinase binding, MIB/MS competition	Candida albicans lysate	10 µM	reference: DMSO	log2 fold change	0.45
N#CC(=Cc1ccccc1Cl)C(=O)NCc1ccccc1	UCHL1	covalent, intact protein LC-MS	–	12.5 µM	–	labelling	35%
OC(CCN1CCCCC1)(c1ccccc1)C1CC2C=CC1C2 (stereo not shown)	–	resting-state EEG	healthy elderly humans	oral, 2 mg, eyes closed, LS mean	–	EEG Alpha2-power Fz-Cz	2.2 µV²
CC(C)NCC(O)c1ccc(O)c(O)c1 (stereo not shown)	–	–	ventricular cardiomyocytes, C57BL/6 mouse	dose not given, 0.784 s	–	sarcomere length	1.7 µm
Cn1cc(Nc2nccc(-c3ccc4c(c3)CN(C3COC3)CC[C@H]4NC(=O)c3cn(C(C)(C)C)nn3)n2)cn1	mouse splenic B cells	refers to: PDGF signalling	–	30 mg/kg, IgD-activated in vivo	reference: vehicle, direction not given	pathway activation z-score	2.5
CCc1ccc2nc(N(CCN(C)C)C(=O)c3ccc4ncsc4c3)sc2c1	Trypanosoma cruzi	reporter translation, Renilla luciferase mRNA translation	cell-free extract	40 µM	reference: DMSO	inhibition	-7.6%
COc1ccc(C(=O)C#Cc2ccc(F)c(F)c2)cc1	Pseudomonas aeruginosa	static biofilm	PA14	10 µM, 24 h, static	reference: DMSO	biofilm formation	88%
C[n+]1cc2c3c(ccc2c2ccc4cc5c(cc4c21)OCO5)OCO3	Toxoplasma gondii	parasite growth	HFF, bradyzoite, glutamine-induced	–	–	EC50	0.375 µM
CCN(CC)CCNC(=O)c1c(C)[nH]c(/C=C2\C(=O)Nc3ccc(F)cc32)c1C	CaMKII (rat)	kinase activity, inhibitor	–	10 µM	–	inhibition	80%
[H]/N=C(/NCCCCC)N/N=C/c1c[nH]c2ccc(OC)cc12	Toxoplasma gondii	parasite growth, luciferase reporter	HFF, tachyzoite	72 h	–	EC90	5.85 µM
Nc1nc(-c2ccccc2)nc2[nH]nc(Nc3ccc(C(F)(F)F)cc3)c12	coxsackievirus B3	–	31-1-93, NMRI mice, CVB3 chronic myocarditis	oral, 100 mg/kg twice daily, day 14, dosed days 1 to 7, score scale 0 to 7	direction not given	clinical score	0.11

Some of these lines once more:
Structure (SMILES)	tested on	assay	system	setting	how to read	measurement	result
[H]/N=C(/NCCCCC)N/N=C/c1c[nH]c2ccc(OC)cc12	Toxoplasma gondii	parasite growth, luciferase reporter	HFF, tachyzoite	72 h	–	EC90	5.85 µM
COc1cccc(C(=O)C#Cc2ccc(F)c(F)c2)c1	Pseudomonas aeruginosa	RT-qPCR, refers to: rhlA	biofilm cells	10 µM, 24 h	reference: untreated	mRNA level	18%
C[n+]1cc2c3c(ccc2c2ccc4cc5c(cc4c21)OCO5)OCO3	Toxoplasma gondii	parasite growth	HFF, bradyzoite, glutamine-induced	–	–	EC50	0.375 µM
COc1cc(C#CC(=O)C(C)C)ccc1O	Pseudomonas aeruginosa	static biofilm	PA14	10 µM, 24 h	reference: DMSO	biofilm formation	76%
